Experimental data of several laboratories.
Each line is one published result; not all experiments were run side by side. ± marks the error that the study gave.

With `CC[C@H](C)[C@@H]1NC(=O)[C@H](CC(N)=O)NC(=O)[C@@H]2CCCN2C(=O)[C@@H](NC(=O)[C@H](CC(N)=O)NC(=O)[C@@H](N)CCC(N)=O)COC(=O)[C@H](CCSC)NC(=O)[C@H](Cc2c[nH]c3ccccc23)NC(=O)[C@H](CCC(N)=O)NC(=O)CNC(=O)[C@H](Cc2ccccc2)NC1=O` the remaining compound was under 4% (human plasma diluted with PBS; 0.28 mM, 30 min, pH 7.2, 37 °C).
For `C[C@H](CCC(=O)N[C@@H](CCCCNC(=O)C(F)(F)F)C(=O)O)[C@H]1CC[C@H]2[C@@H]3[C@H](O)C[C@@H]4C[C@H](O)CC[C@]4(C)[C@H]3C[C@H](O)[C@]12C`, the remaining compound was 97.2% (hNTCP-HEK cell homogenate; 5 µM, 5 min).
For `CCCC[C@H](NC(=O)[C@H](Cc1ccccc1)NC(=O)CNC(=O)[C@@H](C)NC(=O)[C@@H](N)Cc1ccc(O)cc1)C(=O)N1CCC[C@H]1C(=O)N[C@@H](CC(C)C)C(=O)N[C@@H](CO[C@@H]1O[C@H](CO)[C@@H](O)[C@H](O)[C@H]1O)C(=O)N[C@@H](Cc1c[nH]c2ccccc12)C(=O)NCc1cc(C(F)(F)F)cc(C(F)(F)F)c1`, the remaining compound was 70% (rat plasma; 24 h, 37 °C).
`CC[C@@H](C)[C@@H]1NC(=O)[C@@H](Cc2ccccc2)NC(=O)[C@@H]2CCCN2C(=O)[C@H]([C@H](C)CC)NC(=O)[C@@H](Cc2ccccc2)NC(=O)[C@@H]2CCCN2C1=O` gave a remaining compound of 100% (mouse plasma; 2 h, 37 °C).
`COc1cccc2c1C(=O)c1c(O)c3c(c(O)c1C2=O)CC(O)(C(=O)CO)CC3OC1CC(NC(=O)OC2C=CCCC(C)(C(=O)NCC(=O)O)CC2)C(O)C(C)O1` (stereo not drawn) gave a remaining compound of over 99% (mouse plasma; 1 µM, time not given, 37 °C).
With `NC(=O)c1c(F)ccc(OCc2nc3cc(Cl)cnc3s2)c1F` the remaining compound was 94 ± 10.8% (mouse plasma; 10 µM, 24 h, 37 °C).
For `Cc1cnc(-c2ncn3c(=O)n(C)nnc23)o1`, the remaining compound was 95 ± 4% (PBS; 50 µM, 2 h, pH 7.4, no microsomes; reference: time zero).
With `Cc1cc(O)cc(C)c1C[C@H](N)C(=O)N[C@H](C)C(=O)NCC(=O)N[C@@H](Cc1ccc(F)cc1)C(=O)N1CCC[C@H]1C(=O)N[C@@H](CC(C)C)C(=O)N[C@@H](Cc1c[nH]c2ccccc12)C(=O)NCc1cc(C(F)(F)F)cc(C(F)(F)F)c1` the remaining compound was 100% (rat plasma; 0 h, 37 °C).
For `CCN(CC)c1ccc2c(-c3ccccc3C(=O)OCCC[18F])c3ccc(=[N+](CC)CC)cc-3oc2c1`, the remaining compound was over 95% (mouse, rat and human serum; 2 h, 37 °C).
`CC(C)C[C@H](NC(=O)[C@@H]1CCCN1C(=O)[C@H](Cc1ccc(F)cc1)NC(=O)CNC(=O)[C@@H](C)NC(=O)[C@@H](N)Cc1ccc(O)cc1)C(=O)N[C@@H](Cc1c[nH]c2ccccc12)C(=O)NCc1cc(C(F)(F)F)cc(C(F)(F)F)c1` has a remaining compound of 100% (rat plasma; 0 h, 37 °C).
With `CN(C)C(=O)c1ncn2c(=O)n(C)nnc12` the remaining compound was 92 ± 3% (PBS; 50 µM, 2 h, pH 7.4, no microsomes; reference: time zero).
The remaining compound of `C[C@@H]1NC(=O)[C@H](CC(N)=O)N2C[C@H](Cc3c[nH]c4ccccc34)NC(=O)[C@H](CSCC2=O)NC(=O)[C@H](CCCNC(=N)N)NC(=O)[C@@H](Cc2ccccc2)NC(=O)[C@H](Cc2c[nH]cn2)NC(=O)[C@@H](NC(=O)[C@@H](N)Cc2ccc(O)cc2)CSSC[C@@H](C(=O)N[C@@H](Cc2ccc(O)cc2)C(N)=O)NC(=O)[C@H](Cc2ccccc2)NC1=O` is reported as about 12% (LC-MS; rat serum; 10 µM, 24 h, 37 °C).
The remaining compound of `CCc1noc(CC)c1C(=O)O[C@H]1C(C)=C[C@]23C(=O)[C@@H](C=C(CO)[C@@H](O)[C@]12O)[C@H]1[C@@H](C[C@H]3C)C1(C)C` is reported as about 98% (phosphate buffer 30% acetonitrile; 100 µM, 2 h, pH 7.4, 37 °C).
`C[C@H](NCc1ccc(-c2ccc(C(F)(F)F)cc2)cc1)C(N)=O` gave a remaining compound of 98% (human plasma; 1 µM, 120 min).
The remaining compound of `CSCC[C@H](NC(=O)CNC(=O)[C@H](CC(=O)O)NC(=O)[C@@H](NC(=O)[C@@H](NC(=O)[C@@H](NC(=O)CNC(=O)[C@H](CCC(=O)O)NC(=O)[C@H](CCSC)NC(=O)[C@H](CC(=O)O)NC(=O)[C@H](C)NC(=O)[C@H](C)NC(=O)[C@@H](NC(=O)[C@H](CO)NC(=O)[C@@H](N)CC(C)C)[C@@H](C)O)C(C)C)C(C)C)[C@@H](C)O)C(=O)N[C@@H](C)C(=O)N[C@@H](CO)C(=O)NCC(=O)N[C@@H](CC(C)C)C(=O)N[C@@H](CC(=O)O)C(=O)N[C@@H](CCCCN)C(=O)N[C@@H](CC(=O)O)C(=O)N[C@@H](Cc1ccc(O)cc1)C(=O)N[C@@H](CC(C)C)C(=O)N[C@@H](CCCCN)C(=O)N1CCC[C@H]1C(=O)N[C@@H](CC(=O)O)C(=O)N[C@@H](CC(=O)O)C(=O)O` is reported as 67% (LC-MS/MS; dog serum; 10 µg/mL, 24 h, 37 °C).

Some of these lines once more:
`C[C@H](NCc1ccc(-c2ccc(C(F)(F)F)cc2)cc1)C(N)=O` gave a remaining compound of 98% (human plasma; 1 µM, 120 min).
The remaining compound of `CSCC[C@H](NC(=O)CNC(=O)[C@H](CC(=O)O)NC(=O)[C@@H](NC(=O)[C@@H](NC(=O)[C@@H](NC(=O)CNC(=O)[C@H](CCC(=O)O)NC(=O)[C@H](CCSC)NC(=O)[C@H](CC(=O)O)NC(=O)[C@H](C)NC(=O)[C@H](C)NC(=O)[C@@H](NC(=O)[C@H](CO)NC(=O)[C@@H](N)CC(C)C)[C@@H](C)O)C(C)C)C(C)C)[C@@H](C)O)C(=O)N[C@@H](C)C(=O)N[C@@H](CO)C(=O)NCC(=O)N[C@@H](CC(C)C)C(=O)N[C@@H](CC(=O)O)C(=O)N[C@@H](CCCCN)C(=O)N[C@@H](CC(=O)O)C(=O)N[C@@H](Cc1ccc(O)cc1)C(=O)N[C@@H](CC(C)C)C(=O)N[C@@H](CCCCN)C(=O)N1CCC[C@H]1C(=O)N[C@@H](CC(=O)O)C(=O)N[C@@H](CC(=O)O)C(=O)O` is reported as 67% (LC-MS/MS; dog serum; 10 µg/mL, 24 h, 37 °C).
